Measured values of several laboratories.
Compare with care: the assays were run in different laboratories. Values joined by “and” are separate records of one study, mostly repeats; a detail may differ. ± marks the error that the study gave.

SMILES | test | system | setting | scale | measurement | value
NC[C@@H](C(=O)Nc1ccc(-c2cn[nH]c2)cc1)c1ccccc1 | tonometry | Macaca cyclopis, ocular normotensive | ocular, 0.1%, 56 h | – | IOP | 15.3 mmHg
COc1c(Cl)cccc1Nc1c(-c2ccncc2C#C[C@@]2(C)CCCN2C(=O)/C=C/CN(C)C)[nH]c2c1C(=O)NCC2 | – | CUTO14, EGFR ASV, female NSG mouse, CUTO14 xenograft | 100 mg/kg once daily, 21 days | – | tumour growth inhibition | 200%
CN1CCCNC(=O)c2cccc(c2)C(=O)NCCCN(C)CCCNc2cccc3c2C(=O)c2cccc(c2C3=O)NCCC1 | – | KSN/Slc nude mice, SAS xenograft | dose not given, day 6, 144 h | – | tumour volume | 186 mm3 and 95.5 mm3 and 202 mm3 and 245 mm3 and 242 mm3
COc1ccc(CCc2cc(OC)c(O)c(OC)c2)cc1OC | Oil Red O | 3T3-L1, mouse | 5 µM, day 8 | reference: vehicle | lipid accumulation | 53.6 ± 4.22%
CC[C@H](C)[C@@H](C(=O)N[C@@H](CC(C)C)C(=O)N[C@@H](CO)C(=O)N[C@@H](CO)C(=O)N[C@H](C(=O)N[C@@H](CCC(=O)O)C(=O)N[C@H](C(=O)NCC(=O)N[C@@H](CO)C(=O)N[C@@H](CC(N)=O)C(=O)N[C@H](C(=O)N1CCC[C@H]1C(N)=O)[C@@H](C)O)C(C)C)[C@@H](C)O)N(C)C(=O)[C@H](C)NC(=O)CN(C)C(=O)[C@H](Cc1ccccc1)NC(=O)[C@H](CO)NC(=O)[C@H](CO)NC(=O)[C@H](CCCNC(=N)N)NC(=O)[C@H](Cc1c[nH]cn1)NC(=O)[C@H](CC(C)C)NC(=O)[C@H](Cc1ccccc1)NC(=O)[C@H](Cc1c[nH]cn1)NC(=O)[C@H](C)NC(=O)[C@H](CC(C)C)NC(=O)[C@H](CCCNC(=N)N)NC(=O)[C@H](CCC(=O)O)NC(=O)[C@@H](NC(=O)[C@H](C)NC(=O)[C@@H]1CSSC[C@H](NC(=O)[C@H](CCCNC(=N)N)NC(=O)CC[C@H](NC(=O)CCCCCCCCCCCCCCCCCCC(=O)O)C(=O)O)C(=O)NCC(=O)N[C@@H]([C@@H](C)O)C(=O)N[C@@H](C)C(=O)N[C@@H]([C@@H](C)O)C(=O)N1)[C@@H](C)O | – | male Sprague-Dawley rats | subcutaneous, 30 nmol/kg single dose, 96 h | – | body weight loss | 6.7 ± 0.4%
COC1CN([C@H]2CC[C@H]([C@@]3(C)Oc4c(Cl)cc(C(=O)NCc5c(SC)cc(C)[nH]c5=O)c(C)c4O3)CC2)C1 | RNA-seq, refers to: ARPP21 | human, whole blood | dose not given, 24 h | reference: pretreatment baseline | log2 fold change | 8.33
CN1CCC[C@]1(C)/C=C/S(=O)(=O)NC(=O)Nc1c2c(cc3c1CCC3)CCC2 | – | human, whole blood ex vivo | 100 mg single dose, 6 h, single ascending dose, with: LPS and ATP | – | IL-1β inhibition | 99.7%
CC(C)C[C@H](NC(=O)CNC(=O)[C@H](CCC(N)=O)NC(=O)[C@H](CC(C)C)NC(=O)[C@H](CC(C)C)NC(=O)[C@H](CCCNC(=N)N)NC(=O)[C@H](CCC(N)=O)NC(=O)[C@H](CC(C)C)NC(=O)[C@H](CCCNC(=N)N)NC(=O)[C@H](C)NC(=O)CNC(=O)[C@H](CCC(=O)O)NC(=O)[C@H](CCCNC(=N)N)NC(=O)[C@H](CC(C)C)NC(=O)[C@H](CCCNC(=N)N)NC(=O)[C@H](CO)NC(=O)[C@H](CC(C)C)NC(=O)[C@H](CCC(=O)O)NC(=O)[C@H](CO)NC(=O)[C@@H](NC(=O)[C@H](Cc1ccccc1)NC(=O)[C@@H](NC(=O)CNC(=O)[C@H](CC(=O)O)NC(=O)C(C)(C)NC(=O)[C@@H](N)Cc1c[nH]cn1)[C@@H](C)O)[C@@H](C)O)C(=O)N[C@@H](CC(C)C)C(=O)N[C@@H](CCC(N)=O)C(=O)NCC(=O)N[C@@H](CC(C)C)C(=O)N[C@H](C(=O)NCC(=O)N[C@@H](CCCCNC(=O)COCCOCCNC(=O)COCCOCCNC(=O)CC[C@H](NC(=O)CCCCCCCCCCCCCCCCC(=O)O)C(=O)O)C(N)=O)C(C)C | – | DIO C57BL/6J mice | sc, 300 nmol/kg twice daily, 8 days, dark and light phase | – | locomotor activity | no effect
CCOC(=O)C1CCN(CCC(=O)Nc2ccccc2F)CC1 | locomotor activity in dark | Danio rerio larvae, 7 dpf, well of 10 larvae | 10 µM, minute 3, dark | – | third-quartile larval motion | 0 pixels/frame
O=C(CCCCCCc1ccccc1)c1ncc(-c2ccc(CBr)cn2)o1 | refers to: AEA, OEA, PEA | mouse, brain and liver | i.p., 30 mg/kg, 1 and 3 h | – | lipid amide levels | increased
CC(=O)[O-].O.O.O.O.[Mn+2].[O-]c1ccc(Br)cc1C=NCCN1CCOCC1 | DPPH radical scavenging | – | 40 µM | – | inhibition | 11.1%
Cc1ccc(S(=O)(=O)NN)cc1 | hydrazine ligation kinetics, absorbance | – | concentration not given, 45 s, with: 2-formylphenylboronic acid | – | normalised absorbance | 0.886
Cc1ccc(C)c(OCC(O)CN2CCN(c3cc(Cl)ccc3C)CC2)c1 (stereo not drawn) | locomotor activity in dark | Danio rerio larvae, 7 dpf, well of 10 larvae | 10 µM, minute 7, dark | – | third-quartile larval motion | 0 pixels/frame
COc1cc(O)ccc1CCC(c1ccc(O)cc1)c1cc2c(c(C)c1O)OC(c1ccc(O)cc1)CC2 (mixture of isomers) | refers to: 5-HETE | human whole blood | 3 µM, with: Escherichia coli | – | amount | 2220 ± 435 pg/mL blood
Cc1cccc(NC(=O)CCN2CCN(C/C=C/c3ccccc3)CC2)c1 | locomotor activity in dark | Danio rerio larvae, 7 dpf, well of 10 larvae | 10 µM, minute 7, dark | – | third-quartile larval motion | 1.2 ± 0.3 pixels/frame
CC(CCC(=O)NCc1ccc(C(=O)NO)cc1)C1CCC2C3C(O)CC4CC(O)CCC4(C)C3CCC12C (stereo not drawn) | refers to: CA | PCK rat (Pkhd1 mutant), bile | oral gavage, dose not given, 5 months | reference: total bile acids | relative abundance | 5.14%
O=C(NCC1OC2CCC=CCCC2O1)c1ccc(F)nc1 (stereo not drawn) | IEDDA cycloaddition, substrate, stopped-flow spectrophotometry | water/methanol 45:55 | 0.25 mM, 298 K, with: 3,6-di(2-pyridyl)-tetrazine 0.05 mM | – | observed rate constant kobs | 78.2 ± 1.24 s⁻¹
CCOC(=S)NCc1ccc(O[C@@H]2O[C@@H](C)[C@H](O)[C@@H](O)[C@H]2O)cc1 | ABTS radical | – | 300 µg/mL | – | radical scavenging | 9.09 ± 1.43%
CCCCCCCCCCCCCCCC(=O)OCC(CSC[C@H](N)C(=O)N[C@@H](CO)C(=O)N[C@@H](CCCCN)C(=O)N[C@@H](CCCCN)C(=O)N[C@@H](CCCCN)C(=O)N[C@@H](CCCCN)C(=O)NCCCCCC(=O)N[C@@H](CCCCN)C(=O)N[C@@H](CC(C)C)C(=O)N[C@H](C(=O)N[C@@H](Cc1ccccc1)C(=O)N[C@@H](Cc1ccccc1)C(=O)N[C@@H](Cc1ccc2ccccc2c1)C(=O)O)C(C)C)OC(=O)CCCCCCCCCCCCCCC (stereo partly drawn) | – | APP/PS1 transgenic mouse, cortex | intracortical injection, dose not given, 5 d | – | Iba1-positive area | 14.1% and 15.1% and 17.1% and 14.8%
CC1=CC(=O)c2ccccc2C1=O | – | pancreatic islet cells, mouse | 7 µM, 24 h | – | dead cells | 65.6%
COc1ccc(C2NCCc3cc(O)c(O)cc32)cc1 (stereo not drawn) | DPPH scavenging, absorbance | – | 30 min, dark | – | IC50 | 24.4 µM
CCOC(=O)NN | hydrazine ligation kinetics, absorbance | – | concentration not given, 15 s, with: 2-formylphenylboronic acid | – | normalised absorbance | 0.582
Cc1cc(NC(=O)CCN2CCCCC2)ccc1Br | locomotor activity in dark | Danio rerio larvae, 7 dpf, well of 10 larvae | 10 µM, minute 3, dark | – | third-quartile larval motion | 2.3 ± 0.6 pixels/frame
N[C@@H](CNC(=O)N[C@@H](CS)C(=O)NCC(=O)O)C(=O)O | – | mouse C57BL/6, brain | intranasal, dose not given | reference: saline i.c.v. | Iba-1 immunoreactivity | decreased

A few entries again:
SMILES | test | system | setting | scale | measurement | value
CN1CCC[C@]1(C)/C=C/S(=O)(=O)NC(=O)Nc1c2c(cc3c1CCC3)CCC2 | – | human, whole blood ex vivo | 100 mg single dose, 6 h, single ascending dose, with: LPS and ATP | – | IL-1β inhibition | 99.7%
CC(C)C[C@H](NC(=O)CNC(=O)[C@H](CCC(N)=O)NC(=O)[C@H](CC(C)C)NC(=O)[C@H](CC(C)C)NC(=O)[C@H](CCCNC(=N)N)NC(=O)[C@H](CCC(N)=O)NC(=O)[C@H](CC(C)C)NC(=O)[C@H](CCCNC(=N)N)NC(=O)[C@H](C)NC(=O)CNC(=O)[C@H](CCC(=O)O)NC(=O)[C@H](CCCNC(=N)N)NC(=O)[C@H](CC(C)C)NC(=O)[C@H](CCCNC(=N)N)NC(=O)[C@H](CO)NC(=O)[C@H](CC(C)C)NC(=O)[C@H](CCC(=O)O)NC(=O)[C@H](CO)NC(=O)[C@@H](NC(=O)[C@H](Cc1ccccc1)NC(=O)[C@@H](NC(=O)CNC(=O)[C@H](CC(=O)O)NC(=O)C(C)(C)NC(=O)[C@@H](N)Cc1c[nH]cn1)[C@@H](C)O)[C@@H](C)O)C(=O)N[C@@H](CC(C)C)C(=O)N[C@@H](CCC(N)=O)C(=O)NCC(=O)N[C@@H](CC(C)C)C(=O)N[C@H](C(=O)NCC(=O)N[C@@H](CCCCNC(=O)COCCOCCNC(=O)COCCOCCNC(=O)CC[C@H](NC(=O)CCCCCCCCCCCCCCCCC(=O)O)C(=O)O)C(N)=O)C(C)C | – | DIO C57BL/6J mice | sc, 300 nmol/kg twice daily, 8 days, dark and light phase | – | locomotor activity | no effect
